# Experimental data collected from several papers.
# Parts stem from different laboratories: compare values within a part only.

# Series 1
# Target: Prothrombin, mature alpha-thrombin (F2, Homo sapiens, UniProt P00734)
# Method: aptamer microarray, sandwich
# Form: DNA with 2'F-ANA
# Medium: in vitro
# Concentration: 200 nM
# Notes: whole 15-mer aptamer, many near background
# Added: Cy3 exosite-II aptamer, 400 nM
# Direction: higher = stronger binding
# Oligonucleotide: GGTTGGTGTGGTTGG
Modification,mean fluorescence intensity [a.u.]
2'F-ANA at 2 5 7 9 11 14,54.4
2'F-ANA at 3 4 6 10 12 13 14 15,171
2'F-ANA at 1 5 6 8 9 10 11 12 13 14 15,57.5
2'F-ANA at 3 4 5 7 11 12 13 15,115
2'F-ANA at 2 3 4 5 6 7 8 10 11 13,69.5
2'F-ANA at 1 3 4 5 8 9 10 11 13 14,44.5
2'F-ANA at 2 4 6 9 11 12 14 15,89
2'F-ANA at 1 2 3 5 7 9 10 12 14,47.2
2'F-ANA at 1 6 8 9 13 14,53.3
2'F-ANA at 1 5 6 7 8 9 14 15,47.3
2'F-ANA at 5 6 9 11 14 15,48.5
2'F-ANA at 1 5 6 7 8 9 10,47.6
2'F-ANA at 3 5 7 8 9 11 12 13 14 15,63.1
2'F-ANA at 3 4 6 7 8 9 10 11 13 14,174
2'F-ANA at 1 2 4 5,104
2'F-ANA at 2 5 6 12 15,141
2'F-ANA at 1 3 5 7 8 9 10 13 14 15,46
2'F-ANA at 1 2 3 4 5 6 8 9 11 12,188
2'F-ANA at 5 7 9 10 14,47.8
2'F-ANA at 3 4 5 7 8 9 11 15,85.4

# Series 2
# Target: Sal-like protein 4, full length isoform B (SALL4, Homo sapiens, UniProt Q9UJQ4-2, residues 1-616)
# Method: universal PBM
# Form: double-stranded DNA, one strand shown
# Medium: in vitro
# Concentration: not given
# Notes: 8-mer, flanks averaged, mean of replicates
# Direction: higher = stronger binding
# Construct (chain): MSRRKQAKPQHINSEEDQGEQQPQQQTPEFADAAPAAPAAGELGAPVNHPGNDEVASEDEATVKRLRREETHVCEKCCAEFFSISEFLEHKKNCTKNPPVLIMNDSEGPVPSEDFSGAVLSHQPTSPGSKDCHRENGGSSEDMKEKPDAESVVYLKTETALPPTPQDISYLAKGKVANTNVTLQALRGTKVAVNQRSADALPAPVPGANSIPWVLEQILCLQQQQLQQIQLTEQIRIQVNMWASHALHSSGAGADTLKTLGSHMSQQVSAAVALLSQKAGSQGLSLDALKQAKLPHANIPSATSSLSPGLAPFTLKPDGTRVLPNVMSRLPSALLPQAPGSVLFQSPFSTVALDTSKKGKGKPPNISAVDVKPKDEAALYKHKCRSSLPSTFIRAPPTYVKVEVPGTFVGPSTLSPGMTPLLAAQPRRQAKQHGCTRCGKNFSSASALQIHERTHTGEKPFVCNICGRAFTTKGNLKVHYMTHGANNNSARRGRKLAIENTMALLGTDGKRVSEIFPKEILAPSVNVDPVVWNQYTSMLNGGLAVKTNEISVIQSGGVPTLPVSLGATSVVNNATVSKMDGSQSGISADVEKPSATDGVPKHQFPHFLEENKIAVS
Oligonucleotide,E-score
CACCGGAA,-0.00883
TGTAGAAA,0.154
GTATTTCA,0.283
ACAGAAAC,0.121
CAATTAAG,0.177
ATATCAAT,0.372
ATGTGTTG,0.267
CTCGAGTC,-0.143
GTTACGCA,0.0509
GCAAGACC,-0.129
GACCCCGC,-0.299
ATCGACAT,0.148
CTGCAGAC,-0.116
ATGAAACG,0.173
GAAGGCGC,-0.243
AGACGGAG,-0.173
CAGTTGAG,-0.182
AGTGCAAA,0.189
CTAAAAGA,0.0949
CAGCAATG,0.0458
CAGTGGGC,-0.201
ACCCCTGC,-0.189
GGTTAGCA,-0.0838
CCGGGAAG,-0.238
TACACGCA,-0.0357

# Series 3
# Target: RING finger protein unkempt homolog, zinc fingers 1-6, GST-SBP tag (UNK, Homo sapiens, UniProt Q9C0B0, residues 30-357)
# UniProt Q9C0B0, sequence (30-357, looked up): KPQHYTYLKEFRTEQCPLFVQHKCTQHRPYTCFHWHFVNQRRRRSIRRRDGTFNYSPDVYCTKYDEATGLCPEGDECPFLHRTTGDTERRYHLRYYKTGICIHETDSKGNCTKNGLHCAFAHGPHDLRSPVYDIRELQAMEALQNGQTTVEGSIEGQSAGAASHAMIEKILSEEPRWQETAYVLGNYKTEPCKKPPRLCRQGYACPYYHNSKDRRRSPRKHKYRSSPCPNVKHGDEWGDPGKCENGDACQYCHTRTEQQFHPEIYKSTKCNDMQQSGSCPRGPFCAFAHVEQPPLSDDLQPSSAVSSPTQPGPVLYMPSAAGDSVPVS
# Method: RNA Bind-n-Seq
# Form: RNA
# Medium: in vitro
# Concentration: not given
# Notes: RNA with constant flanks, human and mouse sites, ends assumed
# Reference: input RNA pool
# Direction: higher = stronger binding
# Shared flanks, not repeated: GGGAGUUCUACAGUCCGACGAUC … CAACAGAGGAUUGAGCAUCA
Oligonucleotide,bound/input enrichment [ratio]
UUUCUUUUUAUUUUUUAAUUUUCUCCAGUCCCUGGGAGCAAGUUGCAGUCCUUUCCUCCCUGUCCCUCUGUGCUCAGUCGCCCUGUUUUGAGGUCUCAACAUCAUGGUUCUCAAUUAAUU,4.64
GGCGGCCUCACGGACGAGGCCGCCCUCAGUUGCUGCUCCGACGCGGACCCCAGUACCAAGGAUUUUCUAUUGCAGCAGACCAUGCUACGAGUGAAGGAUCCUAAGAAGUCACUGGAUUUU,0.145
GUGGAUGCUGAUAGGUUUCACCAUCUAUUUCGGUUAUGGGAUCUGGCACAGUGAGGAAGCGUCCCUGGCUGCUGGCCAGGCAAAGACUCCUGACAGCAACUUGGACCAGUGCAAAUGACG,0.191
UUCUAAAAACAUUCAUAAUGCAGUCAUGUUUAUUUUUUUCUGUUAAAAUGUUUUUGACAGUUUUAAGAGCAGUCUUUUGGCUCUGACCAUUUCUUGUUCUGUUUCCAAUGAAAUCAAUAA,0.138
GCAUUUGACGAUAAUGAUGGAUAUUGAUGGCAAGCAUGAGUGGAGGGACUGCAUUGAAGUGCCCGGAGUCCGCCUGCCCCGCGGCUACUACUUCGGCACCUCCUCCAUCACUGGGGAUCU,0.202
GAAAACACAGCACUUAGGUUGGCUUAGCUGCAGCCUCCUCAGAGGUCAGAUUAUUUAUUUAAAAUUACUGGUUGCAUCAAGAACCCAUAGGGUGUACAAACGGUUCUAUACAAUCUGCAU,1.81
GUCAACAAGGUGGAGUUGCUGGUGAUGAAGGCACUCUCGGUGGGGCUGGUGAGAGGCAGCAUAGACGAGGUGGACAAGCGGGUUCACAUGACGUGGGUGCAGCCGCGAGUGCUGGAUUUG,0.345
AUCGUGGAGUAUCAGAAUAAGGGCCGAGCGAACGAGUGCGUCCAGUAUCAGCAUGUGUUACAUAGAAAUCUCAUUUAUUUAGCUACCAUCGCAGACGCCAACACAAGCAGUCUCACAAAG,1.06

# Series 4
# Target: RNA binding protein fox-1 homolog 2, RRM domain, GST-SBP tag (RBFOX2, Homo sapiens, UniProt O43251-10, residues 100-194)
# Method: RNA Bind-n-Seq
# Form: RNA
# Medium: in vitro
# Concentration: 365 nM
# Notes: natural RNA segment, single round, ends assumed
# Reference: no-protein control
# Direction: higher = stronger binding
# Shared flanks, not repeated: GGGAGUUCUACAGUCCGACGAUC … UGGAAUUCUCGGGUGCCAA
# Construct (chain): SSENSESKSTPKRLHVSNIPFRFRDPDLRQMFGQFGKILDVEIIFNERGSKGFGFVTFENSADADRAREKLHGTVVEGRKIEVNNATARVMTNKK
Oligonucleotide,RBNS enrichment (R)
CUCAGAUCCCUUAAAGGAUGAAGAGUUGGCUGUACACUUAGCGGACUUGCCUCUUGUAUGCAAGGACUACUGAUUGAAGUCUGUUUUGCUGUGUCUGGUUAUGUUGUCUG,0.408
AUUUCUUAUUUGUUUGGUCACUGCUACACCUUAGCAGCUCUUCCCCUUUCCUGGGGGAUGUGCACGGCAGCUUGAGCCUGUCACGUGGUCAAGGCCCGGCCCCAUCAGAG,0.53
UUUAGUUACUUAAGUUGAGUAAAUGUCUAAUUGUUUACAAACUAAAUUGACUAAAUAAGGUCAAGGAUAAUGUUUUUCAUUGAUUAACCAUUUAUUAUACAUAUAAUCUA,0.422
CCUGUACAGGUAGAUGAACCAGGCGAGAGUUUUAAUCAGCCUUUUCUUGUCCCCUUUGUAAGAAAGAGAUGCUUGCCAUAGAGAAGGACAUGAGUACAUUAAAAAUAAUU,1.87
CACAAGCUGAGCUUUCUCCUUAUGGGGCAAACCUAUGUCUAACCAGAUACAGACCAAUUAGUUUAGAUCAAAUCACCUUCCACUUGGGCUACUUGUGACUUUCCAACCUG,0.217
UGGGGGGAGGAUCCUACGCAGGGGGGACUUGGUGCGUAUAUUAAGGGCUAUAUUUUUCUAGCAUUUGACCUACUUGCGACUUGAUACAGAUUGCAUAGCCUGAAAGAGGC,0.942
CUAAUCCACCUUGCAUCCUGCUGUCCAGGUGGACUUCUGUUAGGGACCCAAGGGCCCUUUGGUGUGUAGUGUACAGCACCUUAUUUUAGCAUCAAUAAAUCCAUUAUCCA,0.541
UUUAUAGCUGUCUUUGCAUCUUUGAUAAAACUUCCACUUGAAUUUGGCACUGAUAAUAAUUAUUGCUUAUGAAAGUUUGUGAAUUAAGUUCUUUAUAAAGGGUAAAAAGC,1.83

# Excerpt of the above (series 2):
Oligonucleotide,E-score
ACAGAAAC,0.121
CAATTAAG,0.177
ATATCAAT,0.372
ATGTGTTG,0.267
